Measured values of several laboratories.
Each line is one published result; not all experiments were run side by side. “And” joins repeats or separate records; there may be more than shown. ± marks the error that the study gave.
Chain of UniProt P78356 (whole entry, looked up): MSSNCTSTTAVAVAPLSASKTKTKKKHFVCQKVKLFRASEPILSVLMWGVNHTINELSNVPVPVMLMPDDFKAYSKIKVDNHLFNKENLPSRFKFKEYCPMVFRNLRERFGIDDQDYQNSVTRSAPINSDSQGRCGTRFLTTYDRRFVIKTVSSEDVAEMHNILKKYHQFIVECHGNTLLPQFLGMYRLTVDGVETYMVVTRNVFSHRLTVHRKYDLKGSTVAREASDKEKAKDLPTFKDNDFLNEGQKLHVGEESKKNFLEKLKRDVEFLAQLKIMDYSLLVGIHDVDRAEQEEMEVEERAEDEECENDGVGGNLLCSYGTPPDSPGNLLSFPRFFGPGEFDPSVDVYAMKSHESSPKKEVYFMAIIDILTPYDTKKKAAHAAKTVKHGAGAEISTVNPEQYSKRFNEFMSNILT

Compound | target or system | assay | test system | setting | scale | endpoint | result
COC(=O)C[C@@H](NC(=O)[C@@H](Cc1ccc(-c2ccccc2)cc1)NC(=O)c1ccc(-c2ccc(OP(=O)(O)O)cc2)cc1)C(=O)OC | – | – | PBS | pH 7.4, before phosphatase treatment | – | critical micelle concentration | 189 µM
Cc1ccc(N(C)C2(C)CN(C)C2)cc1C(=O)N[C@H](C)c1cc(-c2cnn(C)c2)nc2ccccc12 | Vero E6 | – | – | 3.906 µM | – | viability | 97.1%
CC(CCC(=O)NCC(=O)O)C1CCC2C3C(O)CC4CC(OC5OC(C(=O)O)C(O)C(O)C5O)CCC4(C)C3CCC12C (stereo not drawn) | – | item: glucuronide to parent ratio | women, plasma | dose not given | baseline: T/C over T/T | ratio of metabolic ratios | 1.96
Cc1nc2cccc(OCC(C)(C)C(=O)NC(C)C)c2c(N)c1C(=O)[O-].[Na+] | Salmonella typhimurium | reverse mutation, plate incorporation | TA98 | 0.051 mg/plate, without S9 | – | revertant colonies | 25 ± 5 colonies/plate
CC[C@H](C)[C@@H]1NC(=O)[C@H](Cc2ccc(O)cc2)NC(=O)CCCSC[C@@H](C(=O)N(CC(=O)N[C@@H](CC(C)C)C(=O)NCC(N)=O)Cc2ccc(F)cc2)NC(=O)[C@H](CC(N)=O)NC(=O)[C@H](CCC(N)=O)NC1=O | – | – | human | intranasal, 15 µg single dose | – | deaths | 0%
O=C1NC2(CC2)COc2ncc(F)cc2[C@H]2COCCN2c2ccn3ncc1c3n2 | – | – | Sprague-Dawley rat, male, blood | oral, 20 mg/kg/day, end of treatment, 4-week repeated-dose toxicity | baseline: red blood cells | reticulocytes | 3.12 ± 1.98%
CN(C)[C@H]1C[C@@]23CC[C@@]4(O2)C(=CC[C@]2(C)[C@@H](c5ccc6ccncc6c5)CC[C@H]24)C=C3[C@@H](O)[C@@H]1O | Phosphatidylinositol 5-phosphate 4-kinase type-2 beta (PIP4K2B, Homo sapiens, UniProt P78356) | ATP probe labelling, inhibitor, KiNativ profiling | – | 1 µM | – | inhibition | -10.4%
CC(C)(C)C(=O)OCOP(=O)(OCOC(=O)C(C)(C)C)C1CCCN(O)C1=O (stereo not drawn) | OVCAR-4 | – | – | – | – | GI50 | 508 nM
CC(C)[C@@H]1NC(=O)CNC(=O)[C@H](CC(N)=O)NC(=O)[C@H](CCCNC(=N)N)NC(=O)[C@H](Cc2ccc(O)cc2)NC(=O)[C@H](C(C)C)NC(=O)[C@@H](NC(=O)[C@@H](NC(=O)[C@H](CC(N)=O)NC(=O)[C@H](Cc2c[nH]c3ccccc23)NC(=O)[C@H](C)NC(=O)[C@H](Cc2ccccc2)NC(=O)CNC(=O)[C@H](CCCCN)NC(=O)[C@H](Cc2ccccc2)NC(=O)[C@H](Cc2ccccc2)NC(=O)[C@H](CCCCN)NC(=O)OCC2c3ccccc3-c3ccccc32)C(C)C)CSSC[C@@H](C(=O)N[C@@H](Cc2c[nH]cn2)C(=O)N[C@@H](CCCNC(=N)N)C(=O)N[C@@H](CCCNC(=N)N)C(=O)N[C@@H](C)C(=O)N[C@@H](CC(N)=O)C(N)=O)NC(=O)[C@H](C(C)C)NC(=O)[C@H](CCCNC(=N)N)NC1=O | – | – | ICR mouse, serum | ip, 10 mg/kg, 3 d dosing, blood day 5 | – | total protein | 52.3 ± 0.88 g/L
CSCC[C@H](NC(=O)[C@@H](NC(=O)[C@H](CC(C)C)NC(=O)[C@@H](NC(=O)[C@H](Cc1c[nH]cn1)NC(=O)CCCCCNC(=O)[C@H](CCCNC(=N)N)NC(=O)[C@H](CCCNC(=N)N)NC(=O)[C@H](CCCNC(=N)N)NC(=O)[C@H](CCC(N)=O)NC(=O)[C@H](CCCNC(=N)N)NC(=O)[C@H](CCCNC(=N)N)NC(=O)[C@H](CCCCN)NC(=O)[C@H](CCCCN)NC(=O)[C@H](CCCNC(=N)N)NC(=O)CNC(=O)[C@@H](N)Cc1ccc(O)cc1)C(C)C)C(C)C)C(=O)N[C@@H](CS)C(=O)N[C@@H](C)C(=O)N[C@H](C(N)=O)[C@@H](C)O | – | – | C57BL/6J mice | Alzet osmotic pump, 3 mg/kg, 8 weeks | – | serum Phosphorus | 6.1 mg/dL and 7.1 mg/dL
CSCC[C@H](NC(=O)CNC(=O)[C@H](CCCCN)NC(=O)[C@H](CC(C)C)NC(=O)[C@@H]1CCCN1C(=O)[C@H](CO)NC(=O)[C@H](Cc1c[nH]cn1)NC(=O)[C@H](Cc1c[nH]c2ccccc12)NC(=O)[C@H](CCCNC(=N)N)NC(=O)[C@H](CC(C)C)NC(=O)[C@H](CCCNC(=N)N)NC(=O)[C@H](Cc1c[nH]c2ccccc12)NC(=O)[C@H](CS)NC(=O)CCCCCNC(=O)CN1CCN(CC(=O)O)CCN(CC(=O)O)CCN(CC(=O)O)CC1)C(=O)O [copper-64 labelled] | – | ex vivo biodistribution | BALB/c nude mice, brain | intravenous, dose not given, 2 h, Huh-7 tumour-bearing | – | tissue uptake | 0.17 %ID/g
CCCCCCCCCCCCCCCC(=O)N[C@@H](CCC(=O)NCCOCCOCCC(=O)NCCOCCOCCC(=O)NCCCC[C@H](NC(=O)[C@H](CC(=O)O)NC(=O)[C@H](CC(C)C)NC(=O)[C@H](Cc1ccc(O)cc1)NC(=O)[C@H](CCCCN)NC(=O)[C@H](CO)NC(=O)[C@H](Cc1ccc(O)cc1)NC(=O)[C@H](CC(=O)O)NC(=O)[C@H](CO)NC(=O)[C@@H](NC(=O)[C@H](Cc1ccccc1)NC(=O)[C@@H](NC(=O)CNC(=O)[C@H](CCC(N)=O)NC(=O)[C@@H](CO)NC(=O)[C@@H](N)Cc1c[nH]cn1)[C@@H](C)O)[C@@H](C)O)C(=O)N[C@@H](CCCNC(=N)N)C(=O)N[C@@H](CCCNC(=N)N)C(=O)N[C@@H](C)C(=O)N[C@@H](CCC(N)=O)C(=O)N[C@@H](CC(=O)O)C(=O)N[C@@H](Cc1ccccc1)C(=O)N[C@H](C(=O)N[C@@H](CCC(N)=O)C(=O)N[C@@H](Cc1c[nH]c2ccccc12)C(=O)N[C@@H](CC(C)C)C(=O)N[C@@H](CC(C)C)C(=O)N[C@@H](CC(N)=O)C(=O)N[C@H](C(=O)NCC(=O)NCC(=O)N1CCC[C@H]1C(=O)N[C@@H](CO)C(=O)N[C@@H](CO)C(=O)NCC(=O)N[C@@H](C)C(=O)N1CCC[C@H]1C(=O)N1CCC[C@H]1C(=O)N1CCC[C@H]1C(=O)N[C@@H](CO)C(N)=O)[C@@H](C)O)C(C)C)C(=O)O | – | – | rhesus monkey, plasma | subcutaneous, 20 µg/kg, single dose | – | AUC(0-inf) | 83 ng·h/mL
CC[C@H](C)[C@H](NC(=O)[C@H](CCCCN)NC(=O)CNC(=O)[C@H](CC(C)C)NC(=O)[C@H](Cc1ccccc1)NC(=O)[C@H](CCCCN)NC(=O)[C@H](CO)NC(=O)[C@H](Cc1ccccc1)NC(=O)[C@H](Cc1c[nH]c2ccccc12)NC(=O)[C@H](CCC(N)=O)NC(=O)[C@@H](NC(=O)[C@H](Cc1ccccc1)NC(=O)CCCCCNC(=O)CN1CCN(CC(=O)O)CCN(CC(=O)O)CCN(CC(=O)O)CC1)C(C)C)C(=O)N[C@@H](CCC(=O)O)C(=O)N1CCC[C@H]1C(=O)N[C@@H](CC(=O)O)C(=O)N[C@H](C(=O)N[C@@H](CO)C(=O)N[C@@H](CCC(N)=O)C(=O)N[C@H](C(=O)N[C@@H](CCC(N)=O)C(=O)N[C@@H](CC(=O)O)C(=O)N1CCC[C@H]1C(=O)N[C@@H](CC(N)=O)C(=O)N[C@@H](CC(=O)O)C(=O)N[C@@H](CCC(N)=O)C(=O)N[C@@H](Cc1ccc(O)cc1)C(=O)N[C@@H](CCC(=O)O)C(=O)N1CCC[C@H]1C(=O)N[C@@H](Cc1ccccc1)C(=O)O)C(C)C)C(C)C [copper-64 labelled] | – | dynamic PET | mouse both sexes, CT26 tumour, checkpoint inhibitor-treated, tumour | intravenous, 100 µCi/mouse, 810 s | – | SUVmean | 3.55 SUV
COc1ccc(CNc2ccc3c(c2)S(=O)(=O)C=C3)cc1 | – | – | male C57BL/6 mice, blood | intraperitoneal, 20 mg/kg, day 8, group average | – | platelet distribution width | 14.8%
CC(C(=O)O)n1nc(Cn2cc3cc(OCC[18F])c(Cl)cc3n2)c2ccccc2c1=O (racemic) | – | HPLC | nonhuman primate, plasma | 60 min post-injection | baseline: plasma radioactivity | lipophilic radiometabolite | 3%
CCCCCCCCCCCCCCCC(=O)NCCCC[C@H](NC(=O)[C@H](CCC(=O)O)NC(=O)[C@H](Cc1ccc(O)cc1)NC(=O)[C@H](CCC(=O)O)NC(=O)COCC(=O)NCCCOCCOCCOCCCNC(=O)[C@H](Cc1ccccc1)NC(=O)[C@H](CC(N)=O)NC(=O)[C@H](Cc1c[nH]cn1)NC(=O)[C@@H](NC(=O)[C@H](CC(=O)O)NC(=O)[C@H](CCC(N)=O)NC(=O)[C@H](CC(C)C)NC(=O)[C@H](CCCCN)NC(=O)[C@H](CCCCN)NC(=O)[C@H](CCCNC(=N)N)NC(=O)[C@H](CC(C)C)NC(=O)[C@H](Cc1c[nH]c2ccccc12)NC(=O)[C@H](CCC(=O)O)NC(=O)[C@@H](NC(=O)[C@H](CCCNC(=N)N)NC(=O)[C@H](CCC(=O)O)NC(=O)[C@H](CCSC)NC(=O)[C@H](CO)NC(=O)[C@H](CC(N)=O)NC(=O)[C@H](CC(C)C)NC(=O)[C@H](Cc1c[nH]cn1)NC(=O)[C@H](CCCCN)NC(=O)CNC(=O)[C@H](CC(C)C)NC(=O)[C@H](CC(N)=O)NC(=O)[C@H](Cc1c[nH]cn1)NC(=O)[C@H](CCSC)NC(=O)[C@H](CC(C)C)NC(=O)[C@H](CCC(N)=O)NC(=O)[C@@H](NC(=O)[C@H](CCC(=O)O)NC(=O)[C@H](CO)NC(=O)[C@@H](NC(=O)[C@@H](N)CO)C(C)C)[C@@H](C)CC)C(C)C)C(C)C)C(=O)N[C@@H](CCC(=O)O)C(=O)N[C@@H](Cc1ccc(O)cc1)C(=O)N[C@@H](CCC(=O)O)C(N)=O | – | ELISA | female CD-1 mice, blood plasma | subcutaneous, 10 nmol/kg, 7 h | – | plasma concentration | 2.08 nM
O=C(c1cc(Cc2n[nH]c(=O)c3ccccc23)ccc1F)N1CC(CNC2CC2)C1 | – | – | female Wistar Han rat | oral, 30 mg/kg, day 28 | – | Cmax | 2720 ng/mL
Cc1ccc(OCCN(C)C)cc1C(=O)N[C@H](C)c1cc(-c2cnn(CC(=O)N(C)C)c2)nc2ccccc12 | African green monkey cells | – | – | 7.812 µM | – | viability | 86.5%

Excerpt of the above:
Compound | target or system | assay | test system | setting | scale | endpoint | result
CC(C)[C@@H]1NC(=O)CNC(=O)[C@H](CC(N)=O)NC(=O)[C@H](CCCNC(=N)N)NC(=O)[C@H](Cc2ccc(O)cc2)NC(=O)[C@H](C(C)C)NC(=O)[C@@H](NC(=O)[C@@H](NC(=O)[C@H](CC(N)=O)NC(=O)[C@H](Cc2c[nH]c3ccccc23)NC(=O)[C@H](C)NC(=O)[C@H](Cc2ccccc2)NC(=O)CNC(=O)[C@H](CCCCN)NC(=O)[C@H](Cc2ccccc2)NC(=O)[C@H](Cc2ccccc2)NC(=O)[C@H](CCCCN)NC(=O)OCC2c3ccccc3-c3ccccc32)C(C)C)CSSC[C@@H](C(=O)N[C@@H](Cc2c[nH]cn2)C(=O)N[C@@H](CCCNC(=N)N)C(=O)N[C@@H](CCCNC(=N)N)C(=O)N[C@@H](C)C(=O)N[C@@H](CC(N)=O)C(N)=O)NC(=O)[C@H](C(C)C)NC(=O)[C@H](CCCNC(=N)N)NC1=O | – | – | ICR mouse, serum | ip, 10 mg/kg, 3 d dosing, blood day 5 | – | total protein | 52.3 ± 0.88 g/L
CSCC[C@H](NC(=O)[C@@H](NC(=O)[C@H](CC(C)C)NC(=O)[C@@H](NC(=O)[C@H](Cc1c[nH]cn1)NC(=O)CCCCCNC(=O)[C@H](CCCNC(=N)N)NC(=O)[C@H](CCCNC(=N)N)NC(=O)[C@H](CCCNC(=N)N)NC(=O)[C@H](CCC(N)=O)NC(=O)[C@H](CCCNC(=N)N)NC(=O)[C@H](CCCNC(=N)N)NC(=O)[C@H](CCCCN)NC(=O)[C@H](CCCCN)NC(=O)[C@H](CCCNC(=N)N)NC(=O)CNC(=O)[C@@H](N)Cc1ccc(O)cc1)C(C)C)C(C)C)C(=O)N[C@@H](CS)C(=O)N[C@@H](C)C(=O)N[C@H](C(N)=O)[C@@H](C)O | – | – | C57BL/6J mice | Alzet osmotic pump, 3 mg/kg, 8 weeks | – | serum Phosphorus | 6.1 mg/dL and 7.1 mg/dL
